# Experimental data gathered from unrelated publications.
# A part holds a random share of what one study measured. Positions count from the first letter of the parent shown.

# Block 1 — technique: protein binding microarray; molecule type: double-stranded DNA, one strand shown; medium: in vitro; concentration: not given; relative to: not given; direction: higher = stronger binding
# Target: Histone acetyltransferase KAT6A, both winged helices, GST fusion (KAT6A, Homo sapiens, UniProt Q92794, residues 1-181)
# Notes: 8-mer, flanks averaged, mean of 2 arrays, mostly near background
# Residues (chain): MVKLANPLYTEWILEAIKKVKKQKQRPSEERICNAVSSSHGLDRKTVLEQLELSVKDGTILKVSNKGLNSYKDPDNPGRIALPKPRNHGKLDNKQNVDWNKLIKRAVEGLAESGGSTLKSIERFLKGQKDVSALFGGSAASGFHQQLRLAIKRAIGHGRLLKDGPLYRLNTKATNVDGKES
Oligonucleotide,E-score
CTAGCCTA,-0.097
TAGGGACA,-0.0533
AATAAAAT,-0.0518
AAGTTAAG,-0.173
GCAGGACC,-0.0532
ACTCGTAT,-0.124
ACAAAAAA,0.00403
TATCCTGA,-0.152
AGGCCAGC,-0.122
ACCCCGGT,0.0271
AGTGATAA,-0.0469
GCATAAAC,0.114
CCAACTGC,0.077
GCCTAAAA,-0.115
GATCTTGC,0.000505
ACTGGTTA,-0.0875
CCGGCCAA,0.101
AGCCTGTA,-0.134
GCCTTCCC,-0.0257
GGCTAGCC,-0.0277
ACCTGAGG,-0.138
CCTTATTA,-0.112

# Block 2 — technique: protein-binding microarray; molecule type: double-stranded DNA, one strand shown; medium: in vitro; concentration: 940 nM top; notes: 60-bp whole probe; with: salmon DNA 0.4 mg/ml; relative to: random background probes; direction: higher = stronger binding; all sequences stand within: GCCTAGCAC … GTCTTGATTCGCTTGACGCTGCTG
# Target: Interferon regulatory factor 5, full length, phosphomimetic (IRF5, Homo sapiens, UniProt Q13568-2, residues 1-514, S451D/S453D/S456D/S462D)
Oligonucleotide,fitted relative affinity [z-score]
GTCGGACTGGGACTGGGGACGTGCTAG,-0.554
GACGATTTCAGTATCGACACGTGCTAG,3.31
TTTGGTATCGGTATCGGTTAGTGCTAG,14.6
GAACCTTCCCCTCTAGGTTCGTGCTAG,2.23
TTAGGACTAGGGTTTCGGTTAGTGCTA,4.23
GCCGAACTGAGTATCGAGACGTGCTAG,2
ATGCTTTACTCACTCGGAAAGTGCTAG,0.151
GACCATATCAGACTGGAGACGTGCTAG,-0.0888
TTAAAACTGAGTATCGATTAGTGCTAG,4.87
GACAGACTGGGTATCGGGACGTGCTAG,0.866
TTAGGTCTCCGTCTCGGTTAGTGCTAG,1.66
GACGATATCAGTATCGAGAGGTGCTAG,1.53
ATTTATTTACTCTCTACATGGGTGCTA,1.44
TTAGGTATCGACACTGGGTTCGTGCTA,5.22
TTAGATATCAGCCTCGATTAGTGCTAG,-0.158
TTAGGTATCCTTCACCTTTAGTGCTAG,0.608
TTAGGTATCGGGTTTCGTTTAGTGCTA,6.61
GACGGACTGGTCTTTCGGGACGTGCTA,-0.202
GACGAACTGAGTTTCGAGACGTGCTAG,3.85

# Block 3 — technique: RNA Bind-n-Seq; molecule type: RNA; medium: in vitro; concentration: 200 nM; notes: whole 134-nt RNA, ends assumed; with: 150 mM LiCl; relative to: input library; direction: higher = stronger binding; library: 7-deaza-guanosine replaces G
# Target: Ras GTPase-activating protein-binding protein 1, full length (G3BP1, Homo sapiens, UniProt Q13283)
# Sequence of UniProt Q13283 (whole entry, looked up): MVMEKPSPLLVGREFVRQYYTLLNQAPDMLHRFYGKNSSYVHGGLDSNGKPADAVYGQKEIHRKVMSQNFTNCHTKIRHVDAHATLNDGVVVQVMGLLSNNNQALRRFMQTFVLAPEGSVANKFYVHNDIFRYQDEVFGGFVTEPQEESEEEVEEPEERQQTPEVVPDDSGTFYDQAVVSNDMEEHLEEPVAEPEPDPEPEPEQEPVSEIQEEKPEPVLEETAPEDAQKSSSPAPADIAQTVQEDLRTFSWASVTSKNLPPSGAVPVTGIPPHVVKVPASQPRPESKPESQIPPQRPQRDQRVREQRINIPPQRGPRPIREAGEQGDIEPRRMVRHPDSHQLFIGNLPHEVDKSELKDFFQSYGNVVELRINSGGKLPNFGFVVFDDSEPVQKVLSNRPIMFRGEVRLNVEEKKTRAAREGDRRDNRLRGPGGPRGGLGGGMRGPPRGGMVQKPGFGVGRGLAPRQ
# All sequences stand within: GGGAGUUCUACAGUCCGACGAUC … UGGAAUUCUCGGGUGUCAAGG
Oligonucleotide,log2 enrichment
CCUGUGCUACACAUCGUAUGUACCGAAUCGGGAAAAAAGGGGAAAAAAGGGGAAAAAAGGAAAGUAUUAUGUUACGCCGUUCGGAUCUGC,0.414
AGUCCUGUGCUACACAUCGUAUGUACCGAAUCGGGAAAAAGGAAAAAGGAAAAAGGGAAAGUAUUAUGUUACGCCGUUCGGAUCUGCACU,-1.25
UGGCCCUGGUGGCAUGCGGGGAGGAAGAGGUGGCCUCAUAGAUCGUGGUGGUCCCGGUGGAAUGUUCAGAGGUGGCCGUGGUGGAGACAG,0.574
UGGCCCUGGUGGCAUGCGGGGAGGAAGAGGUGGCCUCAUGGAUCGUGGUGGUCCCGGUGGAAUGUUCAGAGGUGGCCGUGGGGGAGACAG,-0.104
UGGGAGGUGGAUUUUGUUUAUUUUUUUAGCUCAUUUCCAGCGGUGGGAAUUUUUUUUUAAUAUGUGUCAUGAAUAAAGUUGUUUUUGAAA,-0.205
AGUCCUGUGCUACACAUCGUAUGUACCGAAUCAAACCCCCAAAUUUAAAUUUUUAAAAAAGUAUUAUGUUACGCCGUUCGGAUCUGCACU,0.648
GCAGGAAGUAAAAACAAAUGGAAAUGCUUCGGAUAGUGGCAGGGGUGGGGGUUGCUAAGGAAAGGGUGGGAUGGGAGUGAAAAAAGAGUU,0.0413
CUGUGCUACACAUCGUAUGUACCGAAUCGGAAAAAAAGGGGAAAAAAAGGGGAAAAAAAGGGAAAGUAUUAUGUUACGCCGUUCGGAUCU,0.187

# Block 4 — technique: universal PBM; molecule type: double-stranded DNA, one strand shown; medium: in vitro; concentration: not given; direction: higher = stronger binding
# Target: Sal-like protein 4, full length isoform B (SALL4, Homo sapiens, UniProt Q9UJQ4-2, residues 1-616)
# Notes: 8-mer, flanks averaged, mean of replicates
# Residues (chain): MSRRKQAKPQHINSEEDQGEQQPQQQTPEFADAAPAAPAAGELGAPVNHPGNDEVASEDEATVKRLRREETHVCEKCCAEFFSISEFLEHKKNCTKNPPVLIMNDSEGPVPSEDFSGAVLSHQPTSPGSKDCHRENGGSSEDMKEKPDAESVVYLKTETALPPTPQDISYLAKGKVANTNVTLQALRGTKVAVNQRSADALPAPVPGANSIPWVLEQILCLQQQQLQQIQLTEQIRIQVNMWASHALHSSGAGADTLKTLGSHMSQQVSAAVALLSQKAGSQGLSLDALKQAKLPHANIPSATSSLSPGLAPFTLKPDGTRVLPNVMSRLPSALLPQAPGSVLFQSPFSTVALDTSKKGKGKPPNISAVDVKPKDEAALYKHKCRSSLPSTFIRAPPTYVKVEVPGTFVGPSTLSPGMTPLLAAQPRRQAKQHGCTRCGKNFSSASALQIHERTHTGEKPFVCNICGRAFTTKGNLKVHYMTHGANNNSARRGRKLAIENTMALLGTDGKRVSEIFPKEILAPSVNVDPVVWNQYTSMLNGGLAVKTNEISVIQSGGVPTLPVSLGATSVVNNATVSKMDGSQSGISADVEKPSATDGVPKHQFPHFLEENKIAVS
Oligonucleotide,E-score
ATTGATTG,0.188
CTTCGTGC,-0.22
TCTAGACA,0.121
CCCGTGCC,-0.331
GGGTATAC,-0.0583
AAAAGAAC,0.0672
CATAATCG,0.201
TAGGCAAA,0.112
CCGGTGGA,-0.222
TACCGCGA,-0.0252
AAAGCCAA,-0.00324
CTAATTAC,0.173
ATGGGCGC,-0.249
GTCCAGTA,-0.0703
AACTGGCT,-0.0307
TCGTGTCA,-0.0623
CCATCTGA,-0.0912
AGCACAAT,0.144
CACACCCG,-0.166
GATGTCGC,-0.0757
AATTGGGA,-0.00605
CGACCCCG,-0.376
TATCAAAA,0.309
AAACGCAG,-0.0915
CTCTTAAG,0.0458

# Block 5 — target: CCNE1, cyclin fold, Cln2 fusion (human); technique: yeast growth competition, sequencing; medium: yeast; notes: strong parent motif; relative to: not given; direction: higher = stronger binding
# Parent: E2F1 docking peptide (human); PPVKRRLDLETDH
Change,normalised enrichment score
PPVQRRLDLETDH [K4Q],0.46
PPVKRWLDLETDH [R6W],0.615
PPVKRRLDLETDQ [H13Q],2.3
FPVKRRLDLETDH [P1F],2.19
PPVKRRLMLETDH [D8M],2.45
PPVKRRRDLETDH [L7R],-0.371
PPVKRRADLETDH [L7A],0.104
PPGKRRLDLETDH [V3G],-0.174
PPVKRRLDLETGH [D12G],1.51
PPVKKRLDLETDH [R5K],-0.0548
PPHKRRLDLETDH [V3H],0.0887
PPVKRRLDLETDP [H13P],2.32
PPTKRRLDLETDH [V3T],0.438
PPVKRRLDLETAH [D12A],1.34

# Excerpt of the above (block 5):
Change,normalised enrichment score
FPVKRRLDLETDH [P1F],2.19
PPVKRRLMLETDH [D8M],2.45
PPVKRRRDLETDH [L7R],-0.371
PPVKRRADLETDH [L7A],0.104
PPGKRRLDLETDH [V3G],-0.174
PPVKRRLDLETGH [D12G],1.51
PPVKKRLDLETDH [R5K],-0.0548
PPHKRRLDLETDH [V3H],0.0887
PPVKRRLDLETDP [H13P],2.32
PPTKRRLDLETDH [V3T],0.438
PPVKRRLDLETAH [D12A],1.34
